Published values gathered from unrelated publications.
Each numbered part is a random draw from the data of one study; scales do not carry over between parts.
Sequence of UniProt Q9NYY3 (whole entry, looked up): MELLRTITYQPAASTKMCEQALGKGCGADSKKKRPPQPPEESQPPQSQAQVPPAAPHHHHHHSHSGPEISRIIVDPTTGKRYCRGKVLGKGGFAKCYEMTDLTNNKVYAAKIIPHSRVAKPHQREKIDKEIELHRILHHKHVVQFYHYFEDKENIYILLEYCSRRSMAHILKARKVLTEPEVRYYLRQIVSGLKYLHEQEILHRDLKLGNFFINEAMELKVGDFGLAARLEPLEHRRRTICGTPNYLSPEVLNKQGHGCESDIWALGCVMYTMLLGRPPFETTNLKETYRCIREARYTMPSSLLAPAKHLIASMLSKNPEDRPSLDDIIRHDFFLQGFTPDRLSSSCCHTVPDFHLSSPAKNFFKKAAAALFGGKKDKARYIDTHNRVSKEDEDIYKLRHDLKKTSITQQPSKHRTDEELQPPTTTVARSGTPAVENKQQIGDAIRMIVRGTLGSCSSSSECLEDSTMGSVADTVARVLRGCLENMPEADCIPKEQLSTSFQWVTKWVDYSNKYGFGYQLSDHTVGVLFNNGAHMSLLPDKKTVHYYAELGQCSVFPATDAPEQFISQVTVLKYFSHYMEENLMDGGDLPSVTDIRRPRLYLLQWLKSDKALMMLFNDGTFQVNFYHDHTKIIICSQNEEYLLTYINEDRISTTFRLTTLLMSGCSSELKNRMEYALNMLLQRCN
Sequence of UniProt O75582 (whole entry, looked up): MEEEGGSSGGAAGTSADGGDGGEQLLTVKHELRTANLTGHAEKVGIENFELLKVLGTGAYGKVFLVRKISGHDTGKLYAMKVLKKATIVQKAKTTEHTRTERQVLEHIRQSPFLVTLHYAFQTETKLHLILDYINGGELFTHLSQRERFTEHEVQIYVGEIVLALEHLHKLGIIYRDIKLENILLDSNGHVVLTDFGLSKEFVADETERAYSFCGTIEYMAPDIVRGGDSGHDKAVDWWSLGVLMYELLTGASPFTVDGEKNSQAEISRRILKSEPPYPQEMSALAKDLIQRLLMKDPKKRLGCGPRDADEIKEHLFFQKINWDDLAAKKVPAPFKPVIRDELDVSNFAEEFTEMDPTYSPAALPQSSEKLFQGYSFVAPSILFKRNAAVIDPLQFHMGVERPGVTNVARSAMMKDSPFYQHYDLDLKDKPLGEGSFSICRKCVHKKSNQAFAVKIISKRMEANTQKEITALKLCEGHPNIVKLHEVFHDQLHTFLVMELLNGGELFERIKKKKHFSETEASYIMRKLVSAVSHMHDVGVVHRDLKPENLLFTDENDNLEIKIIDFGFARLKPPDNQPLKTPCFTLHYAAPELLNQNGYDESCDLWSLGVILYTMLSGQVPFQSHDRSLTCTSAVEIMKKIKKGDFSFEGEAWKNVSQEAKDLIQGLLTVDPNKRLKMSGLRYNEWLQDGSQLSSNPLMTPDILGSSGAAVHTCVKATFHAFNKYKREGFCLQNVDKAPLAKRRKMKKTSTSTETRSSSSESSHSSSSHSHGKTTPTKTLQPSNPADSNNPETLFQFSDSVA
Sequence of UniProt P41743 (whole entry, looked up): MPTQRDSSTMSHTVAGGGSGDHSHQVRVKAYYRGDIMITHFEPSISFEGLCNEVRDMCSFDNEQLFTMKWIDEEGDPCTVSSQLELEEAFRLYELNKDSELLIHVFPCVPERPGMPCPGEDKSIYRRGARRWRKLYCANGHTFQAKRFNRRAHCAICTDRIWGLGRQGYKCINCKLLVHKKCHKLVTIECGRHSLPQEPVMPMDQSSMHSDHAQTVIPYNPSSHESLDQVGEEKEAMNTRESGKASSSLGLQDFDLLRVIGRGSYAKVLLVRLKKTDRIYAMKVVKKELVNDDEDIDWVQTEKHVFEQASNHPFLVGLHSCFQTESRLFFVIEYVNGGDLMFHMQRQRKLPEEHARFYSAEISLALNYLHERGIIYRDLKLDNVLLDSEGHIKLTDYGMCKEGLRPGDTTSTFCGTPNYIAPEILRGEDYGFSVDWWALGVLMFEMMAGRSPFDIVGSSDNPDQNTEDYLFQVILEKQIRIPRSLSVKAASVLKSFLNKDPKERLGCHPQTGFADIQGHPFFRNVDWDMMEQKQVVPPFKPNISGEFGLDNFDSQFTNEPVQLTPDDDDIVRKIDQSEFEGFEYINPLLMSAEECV
Sequence of UniProt P35590 (whole entry, looked up): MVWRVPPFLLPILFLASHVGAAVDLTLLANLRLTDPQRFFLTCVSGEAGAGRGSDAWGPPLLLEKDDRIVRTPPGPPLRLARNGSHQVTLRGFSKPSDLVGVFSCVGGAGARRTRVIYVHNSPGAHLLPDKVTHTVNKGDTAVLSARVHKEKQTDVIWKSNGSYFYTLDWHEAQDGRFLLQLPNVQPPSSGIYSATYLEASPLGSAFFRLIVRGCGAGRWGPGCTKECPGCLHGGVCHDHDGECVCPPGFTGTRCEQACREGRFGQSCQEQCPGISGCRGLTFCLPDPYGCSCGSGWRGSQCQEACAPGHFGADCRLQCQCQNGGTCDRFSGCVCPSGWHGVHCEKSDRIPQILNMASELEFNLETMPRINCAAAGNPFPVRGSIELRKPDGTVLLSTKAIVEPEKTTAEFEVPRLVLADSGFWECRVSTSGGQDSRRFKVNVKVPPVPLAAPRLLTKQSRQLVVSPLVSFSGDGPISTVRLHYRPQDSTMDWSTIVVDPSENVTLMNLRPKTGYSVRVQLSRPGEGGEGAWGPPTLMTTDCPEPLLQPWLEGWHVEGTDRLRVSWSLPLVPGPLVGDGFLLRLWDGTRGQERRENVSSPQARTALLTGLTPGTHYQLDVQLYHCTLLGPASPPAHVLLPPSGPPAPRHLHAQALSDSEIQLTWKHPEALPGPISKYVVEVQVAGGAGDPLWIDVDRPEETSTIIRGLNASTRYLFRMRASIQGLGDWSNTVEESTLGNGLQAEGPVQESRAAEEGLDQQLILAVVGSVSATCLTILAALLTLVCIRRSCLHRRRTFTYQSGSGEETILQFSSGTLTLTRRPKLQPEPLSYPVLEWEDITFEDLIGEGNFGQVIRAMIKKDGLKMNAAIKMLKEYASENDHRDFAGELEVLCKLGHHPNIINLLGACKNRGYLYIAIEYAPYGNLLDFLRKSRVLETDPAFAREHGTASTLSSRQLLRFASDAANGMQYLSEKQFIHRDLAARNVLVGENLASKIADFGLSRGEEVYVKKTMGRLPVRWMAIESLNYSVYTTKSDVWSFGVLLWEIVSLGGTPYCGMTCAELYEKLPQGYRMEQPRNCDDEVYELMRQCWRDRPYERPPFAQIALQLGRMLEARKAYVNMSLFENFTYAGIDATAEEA
Sequence of UniProt P50750 (whole entry, looked up): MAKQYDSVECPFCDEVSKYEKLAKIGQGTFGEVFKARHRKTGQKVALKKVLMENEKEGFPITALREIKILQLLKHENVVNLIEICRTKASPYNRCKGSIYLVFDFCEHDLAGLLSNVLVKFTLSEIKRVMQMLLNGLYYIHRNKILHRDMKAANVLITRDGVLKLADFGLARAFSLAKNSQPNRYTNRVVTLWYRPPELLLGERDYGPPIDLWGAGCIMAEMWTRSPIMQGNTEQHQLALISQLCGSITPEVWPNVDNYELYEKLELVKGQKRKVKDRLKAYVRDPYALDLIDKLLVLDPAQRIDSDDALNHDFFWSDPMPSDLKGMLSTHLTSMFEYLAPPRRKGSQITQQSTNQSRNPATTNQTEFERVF
Sequence of UniProt P09619 (whole entry, looked up): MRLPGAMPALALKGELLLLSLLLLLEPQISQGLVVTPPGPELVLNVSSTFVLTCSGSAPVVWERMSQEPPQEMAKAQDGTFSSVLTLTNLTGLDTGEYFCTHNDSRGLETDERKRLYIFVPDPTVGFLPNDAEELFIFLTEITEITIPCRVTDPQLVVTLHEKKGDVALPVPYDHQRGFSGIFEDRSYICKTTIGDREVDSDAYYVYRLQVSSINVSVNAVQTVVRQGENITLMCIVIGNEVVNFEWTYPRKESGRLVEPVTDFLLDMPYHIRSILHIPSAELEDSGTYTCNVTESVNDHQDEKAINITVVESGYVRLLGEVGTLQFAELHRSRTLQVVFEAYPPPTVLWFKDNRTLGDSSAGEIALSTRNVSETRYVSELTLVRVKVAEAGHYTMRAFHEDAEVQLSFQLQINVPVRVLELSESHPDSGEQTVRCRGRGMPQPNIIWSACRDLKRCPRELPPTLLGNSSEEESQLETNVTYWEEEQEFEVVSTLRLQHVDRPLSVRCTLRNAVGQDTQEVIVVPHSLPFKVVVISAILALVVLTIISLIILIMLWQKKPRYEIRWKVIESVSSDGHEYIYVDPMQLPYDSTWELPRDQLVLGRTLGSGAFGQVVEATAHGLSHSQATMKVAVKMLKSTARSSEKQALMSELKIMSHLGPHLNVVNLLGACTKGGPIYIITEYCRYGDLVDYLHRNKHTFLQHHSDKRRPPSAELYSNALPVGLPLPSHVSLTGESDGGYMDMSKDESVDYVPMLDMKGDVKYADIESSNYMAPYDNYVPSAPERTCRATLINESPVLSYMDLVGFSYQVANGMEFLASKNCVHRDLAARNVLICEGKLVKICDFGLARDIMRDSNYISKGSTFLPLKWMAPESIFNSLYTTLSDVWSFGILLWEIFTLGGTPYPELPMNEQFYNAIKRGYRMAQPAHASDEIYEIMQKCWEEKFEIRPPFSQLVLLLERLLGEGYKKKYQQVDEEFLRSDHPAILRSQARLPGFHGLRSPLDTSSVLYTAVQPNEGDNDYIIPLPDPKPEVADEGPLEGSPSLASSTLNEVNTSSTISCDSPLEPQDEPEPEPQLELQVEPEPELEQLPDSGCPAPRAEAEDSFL
Sequence of UniProt P48729 (whole entry, looked up): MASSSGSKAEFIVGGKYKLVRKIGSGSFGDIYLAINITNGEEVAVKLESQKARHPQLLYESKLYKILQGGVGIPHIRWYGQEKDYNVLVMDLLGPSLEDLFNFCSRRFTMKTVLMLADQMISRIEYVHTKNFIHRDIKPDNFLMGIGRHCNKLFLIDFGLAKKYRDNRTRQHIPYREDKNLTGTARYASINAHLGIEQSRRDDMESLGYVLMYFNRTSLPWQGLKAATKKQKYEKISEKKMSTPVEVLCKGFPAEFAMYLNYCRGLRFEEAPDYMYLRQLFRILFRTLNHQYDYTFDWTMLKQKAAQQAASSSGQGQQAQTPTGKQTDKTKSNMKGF

Study 1 — concentration: 1 µM
SMILES: CNCc1ccccc1-c1csc([C@@H](C)Nc2nc(C)nc3cc(OC)c(OC)cc23)c1
target	test	remaining binding
LCK (Homo sapiens, UniProt P06239)	cell-free assay, competition with immobilised ligand	100%
GRK3 (Homo sapiens, UniProt P35626)	cell-free assay, competition with immobilised ligand	98%
FLT3 (Homo sapiens, UniProt P36888, D835Y)	cell-free assay, competition with immobilised ligand	84%
Ribosomal protein S6 kinase alpha-5, C-terminal kinase domain (RPS6KA5, Homo sapiens, UniProt O75582)	cell-free assay, competition with immobilised ligand	89%
SIK1 (Homo sapiens, UniProt P57059)	competition binding	91%
BTK (Homo sapiens, UniProt Q06187)	cell-free assay, competition with immobilised ligand	90%
CDK2 (Homo sapiens, UniProt P24941)	cell-free assay, competition with immobilised ligand	82%
TIE1 (Homo sapiens, UniProt P35590)	cell-free assay, competition with immobilised ligand	100%
CSNK1G1 (Homo sapiens, UniProt Q9HCP0)	cell-free assay, competition with immobilised ligand	88%
DMPK (Homo sapiens, UniProt Q09013)	cell-free assay, competition with immobilised ligand	86%
BRSK1 (Homo sapiens, UniProt Q8TDC3)	cell-free assay, competition with immobilised ligand	87%
Aurora kinase A (AURKA, Homo sapiens, UniProt O14965)	cell-free assay, competition with immobilised ligand	73%
PDGFRB (Homo sapiens, UniProt P09619)	cell-free assay, competition with immobilised ligand	91%

Study 2 — method: phase 2a trial; host: idiopathic pulmonary fibrosis patients
SMILES: CC(C)n1cnc(-c2ccc(F)cc2)c1-c1ncc(C(=O)Nc2ccc(N3CCN(C)CC3)cc2)[nH]1
setting	patients with arrhythmia [%]
30 mg once daily, adverse event grade 4	0
60 mg once daily, adverse event grade 1	0
dose not given, adverse event grade 3, all dose arms pooled	0
dose not given, adverse event grade 1, all dose arms pooled	0
dose not given, adverse event grade 2, all dose arms pooled	0
30 mg once daily, adverse event grade 5	0
60 mg once daily, adverse event grade 5	0

Study 3 — organism: Plasmodium berghei; action: inhibitor; cells: Huh-7; strain: liver stage; concentration: 10 µM; time: 24 h; reference: untreated control
SMILES	infection rate [%]
O=C(CCNNC(=O)c1ccncc1)NCc1ccccc1	123
CC(=O)O[C@]1(C(C)=O)CC[C@H]2[C@@H]3C[C@H](C)C4=CC(=O)CC[C@]4(C)[C@H]3CC[C@@]21C	65.8
C[C@H]1C[C@@H]2[C@H]([C@@H](O)C[C@@]3(C)[C@H]2CC[C@]3(O)C(=O)CO)[C@@]2(C)C=CC(=O)C=C12	95
Cc1cccc(C)c1OCC(C)N (centres unmarked)	106
CC(O)(P(=O)(O)O)P(=O)(O)O	95.6
Nc1ccc(O)c(C(=O)O)c1	103
N[C@@H](Cc1ccc(O)c(O)c1)C(=O)O	90.6
CC(C)(C)NCC(O)COc1cccc2c1C[C@H](O)[C@H](O)C2 (mixture of isomers)	97.8
CC1=CC(=O)c2ccccc2C1=O	75

Study 4 — effect on: enzyme activity; action: inhibitor; concentration: 0.5 µM; reference: control
SMILES: O=Nc1c(-c2c(O)[nH]c3ccccc23)[nH]c2ccccc12
target	remaining activity
PRKCI (Homo sapiens, UniProt P41743)	92.2%
CSNK1A1 (Homo sapiens, UniProt P48729)	48.2%
Cyclin-dependent kinase 9, with cyclin T1 (CDK9, Homo sapiens, UniProt P50750)	75.2%
PRKCD (Homo sapiens, UniProt Q05655)	95%
PLK2 (Homo sapiens, UniProt Q9NYY3)	106%
MAPK12 (Homo sapiens, UniProt P53778)	99.5%

A few entries again (study 1):
target	test	remaining binding
SIK1 (Homo sapiens, UniProt P57059)	competition binding	91%
BRSK1 (Homo sapiens, UniProt Q8TDC3)	cell-free assay, competition with immobilised ligand	87%
